Assay results of several laboratories.
Each line is one published result; not all experiments were run side by side. Numbers after ± are the reported error.
Target: D(3) dopamine receptor (DRD3, Homo sapiens, UniProt P35462)
Sequence of UniProt P35462 (whole entry, looked up): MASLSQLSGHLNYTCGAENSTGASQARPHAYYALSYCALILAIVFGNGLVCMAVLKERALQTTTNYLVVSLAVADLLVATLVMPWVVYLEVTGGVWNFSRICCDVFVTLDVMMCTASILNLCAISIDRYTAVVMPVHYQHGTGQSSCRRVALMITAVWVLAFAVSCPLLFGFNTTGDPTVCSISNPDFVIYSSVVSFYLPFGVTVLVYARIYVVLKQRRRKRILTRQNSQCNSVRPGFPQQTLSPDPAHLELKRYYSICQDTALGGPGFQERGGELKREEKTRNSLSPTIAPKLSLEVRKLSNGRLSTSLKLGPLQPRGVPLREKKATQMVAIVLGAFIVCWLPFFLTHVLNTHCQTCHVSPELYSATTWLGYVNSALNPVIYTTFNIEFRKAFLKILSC

Cc1ccc(NS(=O)(=O)c2c(C)[nH]c(C)c2C(=O)N2CCCCC2)cc1Cl  Imax (β-arrestin recruitment, agonist, PathHunter; relative to: dopamine): 94 ± 3.7%
Cn1c(=O)c(SCC(=O)NCCN2CCC(Cc3ccccc3)CC2)nc2ccccc21  inhibition (enzyme activity, inhibitor; 10 µM): 95.5%
O=C1c2sc(-c3ccc(N4CCC(F)C4)nc3F)nc2CCN1c1cccnc1 (centres unmarked)  inhibition (ligand displacement, radioligand; 1 µM): -2%
COc1ccc(-c2csc3ncnc(NCCCN4CCN(c5ccccc5)CC4)c23)cc1  inhibition (enzyme activity, inhibitor; 10 µM): 91.1%
Cc1ccc(NS(=O)(=O)c2c(C)[nH]c(C)c2C(=O)N2CCCC2)cc1F  Imax (β-arrestin recruitment, agonist, PathHunter; relative to: dopamine): 99 ± 2.4%
O=C(CN1CCO[C@@H](COc2cccc(Cl)c2)C1)N1CCc2ccccc21  inhibition (radioligand binding; concentration not given, together with: [3H]N-methylspiperone): 27.3%
O=C1c2cc(O)cc(O)c2C(=O)c2c(O)cc(CO)cc21  agonist effect (cAMP level, agonist, HTRF; transfected CHO cells; 50 µM; relative to: control agonist): 8.4%
COc1cc(CNCC(O)c2ccccc2)cc(Cl)c1OCC(N)=O (centres unmarked)  inhibition (enzyme activity, inhibitor; 10 µM): -27.8%
CC1Cc2ccccc2N1C(=O)CN1CCN(Cc2ccccc2)CC1 (centres unmarked)  inhibition (radioligand binding; concentration not given, together with: [3H]N-methylspiperone): 59.7%
Cc1cc(O)c2c(c1)C(=O)c1cc(O)c(S(=O)(=O)O)c(O)c1C2=O  agonist effect (cAMP level, agonist, HTRF; transfected CHO cells; 50 µM; relative to: control agonist): 6.65%
CC(C)Cn1c(SCC(=O)N2CCc3ccccc3C2)nc2cc(Cl)ccc2c1=O  inhibition (ligand displacement, radioligand; 10 µM): -6%

Some of these lines once more:
COc1cc(CNCC(O)c2ccccc2)cc(Cl)c1OCC(N)=O (centres unmarked)  inhibition (enzyme activity, inhibitor; 10 µM): -27.8%
CC1Cc2ccccc2N1C(=O)CN1CCN(Cc2ccccc2)CC1 (centres unmarked)  inhibition (radioligand binding; concentration not given, together with: [3H]N-methylspiperone): 59.7%
